Measurements gathered from unrelated publications.
Numbered parts are unrelated; each lists some results of a single study.
Sequence of UniProt P62344 (whole entry, looked up): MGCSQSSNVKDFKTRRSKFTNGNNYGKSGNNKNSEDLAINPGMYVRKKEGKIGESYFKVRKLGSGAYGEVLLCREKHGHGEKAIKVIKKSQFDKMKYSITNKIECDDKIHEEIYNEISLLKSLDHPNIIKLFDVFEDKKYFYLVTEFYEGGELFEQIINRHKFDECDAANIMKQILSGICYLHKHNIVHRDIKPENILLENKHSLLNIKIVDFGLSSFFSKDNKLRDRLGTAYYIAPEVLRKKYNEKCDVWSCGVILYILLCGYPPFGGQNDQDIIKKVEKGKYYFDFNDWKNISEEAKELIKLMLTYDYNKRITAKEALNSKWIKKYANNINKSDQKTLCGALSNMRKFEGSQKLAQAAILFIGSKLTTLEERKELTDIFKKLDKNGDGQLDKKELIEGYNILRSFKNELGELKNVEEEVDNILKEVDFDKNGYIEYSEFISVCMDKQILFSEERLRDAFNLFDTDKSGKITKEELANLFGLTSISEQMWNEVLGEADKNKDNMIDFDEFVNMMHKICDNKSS

Set 1
Target: Dual specificity tyrosine-phosphorylation-regulated kinase 1B (DYRK1B, Homo sapiens, UniProt Q9Y463)
Observed: enzyme activity
Mode: inhibitor
Method: radiometric
Concentration: 0.5 µM
COc1cc2ncnc(Nc3ccc(O)c(Br)c3)c2cc1OC has a remaining activity of 91.3%.
CCN(CC)CCNC(=O)c1c(C)[nH]c(/C=C2\C(=O)Nc3ccc(Cl)cc32)c1C has a remaining activity of 47.5%.
For O=C1Nc2ccc(Cl)cc2C1=Cc1cc(Cl)c(O)c(Cl)c1, the remaining activity was 90.9%.
COc1cc2ncnc(Nc3cccc(Cl)c3)c2cc1OC has a remaining activity of 104%.
For N#C/C(=C\c1ccc(O)c(O)c1)C(=O)NCc1ccccc1, the remaining activity was 106%.
For COc1cc2c(cc1OC)-c1[nH]nc(Nc3cccc(F)c3)c1C2, the remaining activity was 102%.
For Cc1cc2ncc(-c3ccccc3)nc2cc1C, the remaining activity was 106%.
For Nc1cccc(-c2cc3c(Oc4cccc(O)c4)ncnc3[nH]2)c1, the remaining activity was 100%.
Cc1cn(-c2cc(NC(=O)c3ccc(C)c(Nc4nccc(-c5cccnc5)n4)c3)cc(C(F)(F)F)c2)cn1 has a remaining activity of 92.8%.
C[C@@H]1CCN(C(=O)CC#N)C[C@@H]1N(C)c1ncnc2[nH]ccc12 gave a remaining activity of 97%.
For Ic1cccc(CSc2nnc(-c3ccncc3)o2)c1, the remaining activity was 96.7%.
With COC[C@H]1OC(=O)c2coc3c2[C@@]1(C)C1=C(C3=O)[C@@H]2CCC(=O)[C@@]2(C)C[C@H]1OC(C)=O the remaining activity was 100%.
With O=C1C(Cl)=C(N2C(=O)CCC2=O)C(=O)c2ccccc21 the remaining activity was 103%.
O=c1cc(-c2cccc3c2Sc2ccccc2S3)oc(N2CCOCC2)c1 has a remaining activity of 101%.
O=C(Nc1cccc(Nc2nccc(Nc3cccc(C(F)(F)F)c3)n2)c1)C1CC1 gave a remaining activity of 96.3%.

Set 2
Target: HLA class I histocompatibility antigen, A alpha chain, allele A*25:01 (Homo sapiens, UniProt P04439)
Observed: peptide-MHC binding
Molecule type: peptide
Concentration: concentration not given
For `QLSLKMLSL`, binding read “inactive”.
`FQILHDRFF`: binding “inactive”.
`GQMYNMNTL`: binding “inactive”.
`RWASGVSEI`: binding “inactive”.
For `GPSPSHKSV`, binding read “inactive”.
`WDAYIPHYV`: binding “inactive”.
`EKLKKKSAF` — result for binding: “inactive”.
Under binding, `RLGWRTLDF` is recorded as “inactive”.

Set 3
Target: UBE2D3 UBC core domain (UniProt P61077)
Method: yeast two-hybrid
Matrix: yeast
Setting: mostly zero background
Relative to: not given
Direction: higher = stronger interaction
B1: RNF181 RING domain (UniProt Q9P0P0); chain VIRGSQAELKCPVCLLEFEEEETAIEMPCHHLFHSSCILPWLSKTNSCPLCRYELPTDDDTY
B2: DTX1 RING domain (UniProt Q86Y01); chain QKVKNPPDEDCTICMERLVTASGYEGVLRHKGVRPELVGRLGRCGHMYHLLCLVAMYSNGNKDGSLQCPTCKAIYGEKTGTQ
B3: ZNRF3 RING domain (UniProt Q9ULT6); chain DTLSSSSTSDCAICLEKYIDGEELRVIPCTHRFHRKCVDPWLLQHHTCPHCRHNIIEQKGNP
B4: RNF135 RING domain (UniProt Q8IUD6); chain PVWLAEDDLGCIICQGLLDWPATLPCGHSFCRHCLEALWGARDARRWACPTCRQGAAQQPHLR
Construct (chain): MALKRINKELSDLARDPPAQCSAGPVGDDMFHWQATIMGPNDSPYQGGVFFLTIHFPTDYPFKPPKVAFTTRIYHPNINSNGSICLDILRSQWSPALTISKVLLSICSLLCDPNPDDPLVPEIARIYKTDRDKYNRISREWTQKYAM
For `MDDQGCPRCKTTKYRNPSLKLMVNVCGHTLCESCVDLLFVRGAGNCPECGTPLRKSNFRV (MNAT1 RING domain (UniProt P51948))`, “lacZ reporter activity” read 0.
For `ALDRLEKLLRCSRCTNILREPVCLGGCEHIFCSNCVSDCIGTGCPVCYTPAWIQDLKI (BARD1 RING domain (UniProt Q99728))`, “lacZ reporter activity” read 0.
`B1 (RNF181 RING domain)` — result for “lacZ reporter activity”: 13500.
For `B2 (DTX1 RING domain)`, “lacZ reporter activity” read 11900.
For `B3 (ZNRF3 RING domain)`, “lacZ reporter activity” read 0.
Under “lacZ reporter activity”, `QLRRLQEERTCKVCLDRAVSIVFVPCGHLVCAECAPGLQLCPICRAPVRSRVRTF (BIRC7 RING domain (UniProt Q96CA5))` is recorded as 0.
Under “lacZ reporter activity”, `B4 (RNF135 RING domain)` is recorded as 0.
`KLWDINAHITCRLCSGYLIDATTVTECLHTFCRSCLVKYLEENNTCPTCRIVIHQSHPLQ (PCGF3 RING domain (UniProt Q3KNV8))`: “lacZ reporter activity” 0.

Mixed results
CN(C)C1C(=O)C(C(N)=O)=C(O)C2(O)C(=O)C3=C(O)c4c(O)cccc4C(C)(O)C3CC12 (stereo not shown) gave a nuclei count of 1.82 z-score (mouse MPNST tumor cells; high-content nuclear imaging, measured: cell number; 10 µM, 12 h, mean of 2 replicates; relative to: plate mean, higher = more cells).
With O=C(Nc1ccc(Oc2ccc(F)cc2)cc1)N1CCc2ncccc2[C@H]1c1ccc(F)cc1 the remaining binding was 96% (CDPK1 (Plasmodium falciparum, UniProt P62344); cell-free assay, competition with immobilised ligand; 1 µM).
For C=CC[C@]1(O)CC[C@H]2[C@@H]3CCC4=CC(=O)CCC4=C3C=C[C@@]21C, the viability was 50.1% (A-375; 100 µM, 18 h).
For C=CCC1(CC(C)C)C(=O)NC(=O)NC1=O, the nuclei count was 0.25 z-score (mouse MPNST tumor cells; high-content nuclear imaging, measured: cell number; 10 µM, 12 h, mean of 2 replicates; relative to: plate mean, higher = more cells).
COc1ccc(-c2c(Nc3ccccn3)[nH]c3c(C4=CCCCC4)c(-c4ccccc4)nn3c2=O)cc1: “blood bilirubin increased incidence” 22.5% (patients with advanced malignancies; oral, dose not given, treatment-emergent adverse events).
COc1ccc(N(C(=O)Oc2c(C)cccc2C)c2ccnc(Nc3ccc(N4CCN(C)CC4)cc3)n2)c(OC)c1 gave a viability of 79.1% (HH; 2 µM, 48 h; relative to: untreated).
